Measured values of several laboratories.
“And” joins repeats or separate records; there may be more than shown. ± marks the error that the study gave.
Seed linoleate 13S-lipoxygenase-1: Seed linoleate 13S-lipoxygenase-1 (Glycine max, UniProt P08170)
UniProt P08170, sequence (whole entry, looked up): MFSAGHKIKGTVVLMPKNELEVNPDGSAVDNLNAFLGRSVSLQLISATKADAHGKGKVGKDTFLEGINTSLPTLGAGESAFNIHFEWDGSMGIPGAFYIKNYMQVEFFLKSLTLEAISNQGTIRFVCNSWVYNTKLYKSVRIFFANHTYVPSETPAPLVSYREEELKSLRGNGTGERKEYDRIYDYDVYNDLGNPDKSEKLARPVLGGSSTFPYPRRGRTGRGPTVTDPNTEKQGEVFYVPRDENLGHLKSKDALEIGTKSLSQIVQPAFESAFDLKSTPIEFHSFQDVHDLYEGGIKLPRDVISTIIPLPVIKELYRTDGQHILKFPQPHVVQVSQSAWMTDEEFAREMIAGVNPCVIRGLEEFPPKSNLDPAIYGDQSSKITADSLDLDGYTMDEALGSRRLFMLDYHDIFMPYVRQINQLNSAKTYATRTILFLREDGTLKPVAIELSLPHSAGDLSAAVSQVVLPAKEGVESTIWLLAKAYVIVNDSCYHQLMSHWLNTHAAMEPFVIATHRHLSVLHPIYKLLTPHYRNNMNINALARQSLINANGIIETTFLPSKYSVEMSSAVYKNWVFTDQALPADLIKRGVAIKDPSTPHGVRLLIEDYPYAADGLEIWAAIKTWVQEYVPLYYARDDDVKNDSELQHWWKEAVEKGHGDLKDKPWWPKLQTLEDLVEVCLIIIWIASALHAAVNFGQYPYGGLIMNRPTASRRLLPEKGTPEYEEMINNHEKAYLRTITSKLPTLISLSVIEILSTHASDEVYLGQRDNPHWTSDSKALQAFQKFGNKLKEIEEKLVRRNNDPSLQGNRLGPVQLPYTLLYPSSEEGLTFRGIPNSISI
PSMB7 in 20S proteasome: Proteasome subunit beta type-7, in 20S proteasome (PSMB7, Homo sapiens, UniProt Q99436)
UniProt Q99436, sequence (whole entry, looked up): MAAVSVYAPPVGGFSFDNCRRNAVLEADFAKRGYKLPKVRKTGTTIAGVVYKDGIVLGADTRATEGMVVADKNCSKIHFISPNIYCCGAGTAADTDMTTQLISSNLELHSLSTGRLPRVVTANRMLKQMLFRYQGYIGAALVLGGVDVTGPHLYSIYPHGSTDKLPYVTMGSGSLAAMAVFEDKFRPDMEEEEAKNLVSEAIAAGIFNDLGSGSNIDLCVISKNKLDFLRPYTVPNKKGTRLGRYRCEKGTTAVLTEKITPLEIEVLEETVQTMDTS
SEC14: SEC14 (Saccharomyces cerevisiae, UniProt P24280)
UniProt P24280, sequence (whole entry, looked up): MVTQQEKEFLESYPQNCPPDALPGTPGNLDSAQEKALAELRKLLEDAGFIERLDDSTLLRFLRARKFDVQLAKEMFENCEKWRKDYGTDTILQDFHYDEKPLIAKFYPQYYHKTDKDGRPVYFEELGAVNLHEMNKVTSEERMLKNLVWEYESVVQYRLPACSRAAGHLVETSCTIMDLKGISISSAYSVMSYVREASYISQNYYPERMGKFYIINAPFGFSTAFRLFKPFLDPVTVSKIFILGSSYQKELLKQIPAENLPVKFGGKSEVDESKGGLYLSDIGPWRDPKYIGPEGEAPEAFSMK
EGLN2: Prolyl hydroxylase EGLN2 (EGLN2, Homo sapiens, UniProt Q96KS0)
UniProt Q13043, sequence (whole entry, looked up): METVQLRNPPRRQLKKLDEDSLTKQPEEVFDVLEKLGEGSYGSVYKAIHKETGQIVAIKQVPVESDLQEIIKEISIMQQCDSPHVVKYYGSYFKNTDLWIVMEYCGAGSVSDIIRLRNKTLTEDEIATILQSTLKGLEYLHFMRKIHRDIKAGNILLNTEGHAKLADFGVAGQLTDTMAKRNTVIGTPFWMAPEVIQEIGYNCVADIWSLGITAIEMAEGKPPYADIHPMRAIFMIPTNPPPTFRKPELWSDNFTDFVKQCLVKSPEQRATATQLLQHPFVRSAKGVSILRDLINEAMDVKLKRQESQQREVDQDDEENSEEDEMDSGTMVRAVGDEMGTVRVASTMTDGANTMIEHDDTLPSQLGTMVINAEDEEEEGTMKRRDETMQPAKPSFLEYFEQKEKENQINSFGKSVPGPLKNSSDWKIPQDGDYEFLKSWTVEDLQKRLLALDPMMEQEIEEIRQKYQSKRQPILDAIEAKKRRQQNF
UniProt Q96KS0, sequence (whole entry, looked up): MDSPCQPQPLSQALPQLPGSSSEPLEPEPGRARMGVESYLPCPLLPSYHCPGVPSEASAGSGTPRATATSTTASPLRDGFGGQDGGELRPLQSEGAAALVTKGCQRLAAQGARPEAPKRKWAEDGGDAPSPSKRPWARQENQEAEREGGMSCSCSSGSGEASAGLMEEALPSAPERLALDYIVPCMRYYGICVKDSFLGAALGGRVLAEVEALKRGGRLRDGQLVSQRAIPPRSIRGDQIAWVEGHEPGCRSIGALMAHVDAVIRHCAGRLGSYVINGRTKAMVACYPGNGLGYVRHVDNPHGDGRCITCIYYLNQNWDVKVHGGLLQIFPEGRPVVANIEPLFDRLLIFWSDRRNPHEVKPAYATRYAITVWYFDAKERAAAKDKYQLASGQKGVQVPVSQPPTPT
UniProt C0HJB3, sequence (whole entry, looked up): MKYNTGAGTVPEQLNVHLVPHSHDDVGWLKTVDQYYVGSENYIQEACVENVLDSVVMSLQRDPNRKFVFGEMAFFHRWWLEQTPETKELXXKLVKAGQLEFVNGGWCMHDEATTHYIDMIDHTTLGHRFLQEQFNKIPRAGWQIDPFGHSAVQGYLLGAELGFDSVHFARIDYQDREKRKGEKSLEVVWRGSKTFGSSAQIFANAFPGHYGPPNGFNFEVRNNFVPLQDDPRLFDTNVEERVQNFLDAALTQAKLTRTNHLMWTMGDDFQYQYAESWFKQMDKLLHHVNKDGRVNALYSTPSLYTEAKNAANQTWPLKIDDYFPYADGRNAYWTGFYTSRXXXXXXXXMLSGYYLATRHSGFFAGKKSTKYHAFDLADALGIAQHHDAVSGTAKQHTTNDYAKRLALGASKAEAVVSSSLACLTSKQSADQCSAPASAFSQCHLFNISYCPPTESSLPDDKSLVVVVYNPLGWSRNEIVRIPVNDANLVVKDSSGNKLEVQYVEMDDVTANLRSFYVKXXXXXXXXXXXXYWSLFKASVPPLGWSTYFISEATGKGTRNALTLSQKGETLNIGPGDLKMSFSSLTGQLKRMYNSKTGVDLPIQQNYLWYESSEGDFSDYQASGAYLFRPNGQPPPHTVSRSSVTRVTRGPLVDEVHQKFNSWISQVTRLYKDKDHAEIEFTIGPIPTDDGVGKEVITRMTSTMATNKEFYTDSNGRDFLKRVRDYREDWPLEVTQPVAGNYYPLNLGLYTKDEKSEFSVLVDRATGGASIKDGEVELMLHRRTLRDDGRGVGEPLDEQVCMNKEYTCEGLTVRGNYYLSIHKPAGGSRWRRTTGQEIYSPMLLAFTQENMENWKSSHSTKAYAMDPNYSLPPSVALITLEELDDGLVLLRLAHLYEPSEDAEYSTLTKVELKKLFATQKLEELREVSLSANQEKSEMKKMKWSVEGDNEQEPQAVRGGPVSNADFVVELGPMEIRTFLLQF
UniProt P39051, sequence (whole entry, looked up): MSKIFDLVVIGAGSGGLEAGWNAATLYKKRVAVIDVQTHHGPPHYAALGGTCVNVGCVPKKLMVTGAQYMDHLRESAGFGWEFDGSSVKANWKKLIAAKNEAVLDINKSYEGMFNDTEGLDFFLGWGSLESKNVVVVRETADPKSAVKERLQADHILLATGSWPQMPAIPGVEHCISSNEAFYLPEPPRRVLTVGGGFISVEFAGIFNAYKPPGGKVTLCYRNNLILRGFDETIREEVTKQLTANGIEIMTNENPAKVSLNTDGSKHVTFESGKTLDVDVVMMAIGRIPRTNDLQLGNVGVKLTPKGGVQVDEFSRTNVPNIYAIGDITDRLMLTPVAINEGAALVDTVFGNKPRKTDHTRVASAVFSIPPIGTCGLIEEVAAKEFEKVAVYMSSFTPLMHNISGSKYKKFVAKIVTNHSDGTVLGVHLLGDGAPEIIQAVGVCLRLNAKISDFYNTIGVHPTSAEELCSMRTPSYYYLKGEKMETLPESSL
UniProt P21761, sequence (whole entry, looked up): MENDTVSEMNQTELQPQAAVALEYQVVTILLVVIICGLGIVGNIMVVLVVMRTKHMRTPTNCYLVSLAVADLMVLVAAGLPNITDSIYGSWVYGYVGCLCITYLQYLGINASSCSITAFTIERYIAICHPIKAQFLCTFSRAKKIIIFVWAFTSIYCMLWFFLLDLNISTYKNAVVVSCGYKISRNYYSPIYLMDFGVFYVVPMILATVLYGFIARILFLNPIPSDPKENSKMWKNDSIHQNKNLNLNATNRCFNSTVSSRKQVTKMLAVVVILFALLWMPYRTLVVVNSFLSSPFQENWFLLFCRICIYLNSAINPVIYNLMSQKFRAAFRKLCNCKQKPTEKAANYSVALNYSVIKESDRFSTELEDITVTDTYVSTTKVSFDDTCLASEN
UniProt P06240, sequence (whole entry, looked up): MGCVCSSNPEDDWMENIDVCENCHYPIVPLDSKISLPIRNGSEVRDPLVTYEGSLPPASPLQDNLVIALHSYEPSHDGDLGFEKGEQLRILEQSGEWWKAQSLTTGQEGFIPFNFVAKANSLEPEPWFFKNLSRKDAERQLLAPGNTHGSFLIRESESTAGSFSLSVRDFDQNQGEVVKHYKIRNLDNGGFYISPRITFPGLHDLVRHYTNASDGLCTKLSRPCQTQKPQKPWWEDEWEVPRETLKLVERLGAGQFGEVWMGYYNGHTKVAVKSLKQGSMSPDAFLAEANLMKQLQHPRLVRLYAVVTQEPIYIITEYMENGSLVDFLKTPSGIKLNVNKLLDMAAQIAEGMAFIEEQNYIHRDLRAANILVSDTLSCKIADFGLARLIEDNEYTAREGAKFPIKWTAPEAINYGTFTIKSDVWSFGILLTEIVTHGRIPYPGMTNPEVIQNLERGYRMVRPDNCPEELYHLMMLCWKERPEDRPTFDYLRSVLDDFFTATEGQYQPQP
UniProt Q2FDS6, sequence (whole entry, looked up): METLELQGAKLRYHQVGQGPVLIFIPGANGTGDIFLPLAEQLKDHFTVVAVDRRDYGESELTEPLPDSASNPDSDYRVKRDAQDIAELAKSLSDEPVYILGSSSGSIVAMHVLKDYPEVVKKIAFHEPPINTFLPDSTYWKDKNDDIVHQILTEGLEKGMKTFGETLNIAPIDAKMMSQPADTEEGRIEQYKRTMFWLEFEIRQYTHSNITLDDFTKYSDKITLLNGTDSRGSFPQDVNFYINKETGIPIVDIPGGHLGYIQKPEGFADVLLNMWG

| SMILES | target | test | test system | conditions | IC50 |
| --- | --- | --- | --- | --- | --- |
| CC1OC(Oc2c(-c3ccc(O)cc3)oc3cc(O)cc(O)c3c2=O)C(OC(=O)C=Cc2ccc(O)cc2)C(O)C1OC(=O)C=Cc1ccc(O)cc1 (centres unmarked) | CXCR1 (Homo sapiens, UniProt P25024) | calcium flux, antagonist | 293FT GCaMP6 transfected |  | > 1 µM |
| COc1nn(-c2ccc(NC(=O)CON)cc2)c(=O)o1 | Uncharacterized hydrolase SAUSA300_2518 (Staphylococcus aureus, UniProt Q2FDS6) | enzyme activity, inhibitor |  | with: 4-methylumbelliferyl substrate | 0.3 µM |
| Cn1c(=O)nc2[nH]nc(-c3cc(Br)ccc3F)nc-2c1=O | TPR (Trypanosoma brucei brucei, UniProt P39051) | inhibitor, DTNB-coupled colourimetric |  | with: substrate at Km | > 100 µM |
| NC(=O)[C@@H]1CCCNC(=O)[C@H](Cc2ccc([N+](=O)[O-])cc2)NC(=O)[C@H](Cc2ccco2)NC(=O)[C@H](CC2CC2)NC(=O)/C=C/C(=O)N1 | Lck (Mus musculus, UniProt P06240) | enzyme activity, inhibitor, absorbance |  |  | > 100 µM |
| CCn1c(SC(C)C(=O)Nc2ccccc2C)nnc1C1CCN(C(=O)Nc2ccccc2)CC1 (centres unmarked) | Seed linoleate 13S-lipoxygenase-1 | enzyme activity, inhibitor |  |  | 23.6 µM |
| CSc1ncc(-c2cc(-c3ccc4c(c3)OCO4)[nH]c(=N)c2C#N)n1Cc1ccccc1 | PIM1 (Homo sapiens, UniProt P11309) | enzyme activity, inhibitor |  |  | < 0.15 µM |
| CNC(=O)C1CCN(c2ccccc2NC(=O)c2ccc(-c3cc(O)ccc3C)cc2)CC1 | EPHA4 (Homo sapiens, UniProt P54764) | target engagement in cells, BRET |  |  | 0.0648 µM |
| C=C(NC(=O)C(=C)NC(=O)c1csc(C2=NC3c4csc(n4)C4NC(=O)c5csc(n5)C(C(C)(O)C(C)O)NC(=O)C5CSC(=N5)C(=CC)NC(=O)C(C(C)O)NC(=O)c5csc(n5)C3(CC2)NC(=O)C(C)NC(=O)C(=C)NC(=O)C(=C)NC(=O)C(C(C)CC)NC2C=Cc3c(C(C)O)cc(nc3C2O)C(=O)OC4C)n1)C(N)=O (centres unmarked) | PSMB7 in 20S proteasome | trypsin-like activity, inhibitor | purified human 20S proteasome | 37 °C, 15 min preincubation, with: Boc-Leu-Arg-Arg-AMC | 0.71 ± 0.07 µM |
| C/C=C/C(=O)Nc1ccc2nc(NCCCCCN(C)C)nc(NCCCCCCN(C)C)c2c1 | M-phase phosphoprotein 8, chromodomain (Homo sapiens, UniProt Q99549) | methyl-lysine binding, TR-FRET |  |  | 16 ± 3.8 µM |
| O=C(c1ccc(Br)cc1)N1CCN(c2ccc(F)cc2)CC1 | SEC14 | enzyme activity, inhibitor, radiometric |  |  | 0.768 µM |
| O=c1c(-n2ccnc2)c[nH]n1-c1ccccn1 | EGLN2 | enzyme activity, inhibitor, europium VBC binding |  | 10 µM FeSO4, 2 mM ascorbate, with: 20 µM 2-oxoglutarate | 0.98 µM |
| CSCC[C@H](NC(=O)[C@@H]1CCCN1C(=O)[C@@H](NC(=O)[C@H](Cc1ccc(O)cc1)NC(=O)[C@@H](N)CC(=O)O)C(C)C)C(=O)N[C@@H](CCC(=O)O)C(=O)N[C@@H](CCC(N)=O)C(=O)N1CCC[C@H]1C(=O)N[C@@H](CCCNC(=N)N)C(=O)O | H-2 class I histocompatibility antigen, K-D alpha chain, 29 (H2-K1, Mus musculus, UniProt P01902) | binding, competitor, radioligand competition |  | purified MHC, mutant peptide, with: radiolabeled standard peptide | > 70 µM |
| N#Cc1cnc2cc(OCC3CCNCC3)c(F)cc2c1Nc1cc(F)c(OCc2cccc(Cl)n2)cc1Cl | STK4 (Homo sapiens, UniProt Q13043) | enzyme activity, inhibitor |  |  | 0.0263 µM and 0.0255 µM |
| C#CCCNC(=O)[C@@H](NC(=O)N[C@H](C(=O)N[C@H]1/C=C/CCNC(=O)/C=C/[C@H](C(C)C)NC1=O)C(C)C)C(C)C | PSMB7 (Homo sapiens, UniProt Q99436) | trypsin-like activity, inhibitor |  | human constitutive proteasome, with: Bz-VGR-AMC | 0.14 µM |
| O=C(c1ccc(Cl)c([N+](=O)[O-])c1)N1CCN(c2ccc(F)cc2)CC1 | SEC14 | enzyme activity, inhibitor, radiometric |  |  | 0.283 µM |
| NS(=O)(=O)c1ccc(-n2cc(CNc3ccccc3Cl)c(-c3ccc(OCc4ccccc4)cc3)n2)cc1 | PTGS1 (Homo sapiens, UniProt P23219) | enzyme activity, inhibitor, absorbance |  |  | 183 µM |
| Cc1cc(O)c2c(c1)C(=O)c1cc3oc(=O)cc(-c4ccc(O)cc4)c3c(O)c1C2=O | mushroom tyrosinase | enzyme activity |  | with: L-DOPA | > 100 µg/mL |
| CC(=O)NCCN(CCC(=O)NCCN(CCC(=O)NCCN(CCC(=O)NCCC(N)=O)C(=O)[C@@H](N)CCCNC(=N)N)C(=O)[C@@H](N)CCCCN)C(=O)[C@@H](N)Cc1ccccc1 | HIV-1 TAR RNA | Tat/TAR complex displacement, FRET |  | room temperature, with: 10 nM Tat/TAR complex | 18 ± 0.8 µM |

| SMILES | target | test | test system | conditions | IC50 |
| --- | --- | --- | --- | --- | --- |
| O=C1Nc2ccc(-c3ccc(C(=O)N4CCCCC4)cc3)cc2/C1=C/c1ccc(N2CCNCC2)cc1 | FGFR4 (Homo sapiens, UniProt P22455) | enzyme activity, inhibitor |  |  | 26.8 µM |
| C=CCNCC(=O)N1CCc2sccc2C1COc1ccc(Cl)cc1 (centres unmarked) | HHAT (Homo sapiens, UniProt Q5VTY9) | enzyme activity, inhibitor |  |  | 0.18 µM |
| Nc1ncc(-c2cnn(C3CCNCC3)c2)cc1-c1nc2ccccc2o1 | JAK2 (Homo sapiens, UniProt O60674) | enzyme activity, inhibitor, TR-FRET |  |  | 1.79 µM |
| OC[C@H]1[C@@H](O)[C@@H](O)CN1CCc1ccccc1 | Alpha-mannosidase (Canavalia ensiformis, UniProt C0HJB3) | enzyme activity, inhibitor, absorbance |  | pH 5 | 2700 µM |
| Cn1cnc(C[C@H](NC(=O)c2cnccn2)C(=O)N2CCC[C@H]2C(N)=O)c1 | Thyrotropin-releasing hormone receptor (Mus musculus, UniProt P21761) | ligand displacement, radioligand |  |  | > 50 µM |
| O=C1Nc2ccc(Cl)cc2C1=Cc1ccc(-c2cccc(C(=O)NCC3CCNCC3)c2)o1 (mixture of isomers) | CSNK2A1 (Homo sapiens, UniProt P68400) | enzyme activity, inhibitor |  |  | 1.43 µM |
| C=CC(=O)Nc1ccc(-c2c(-c3ccc(Oc4cccc(C)n4)cc3)c3c(N)ncnc3n2C)cc1 | FGFR2 (Homo sapiens, UniProt P21802) | Caliper mobility shift |  | 30 min preincubation, with: 100 µM ATP | 0.0001 µM |
| CNC(=O)c1ccc2c(c1)N(C)S(=O)(=O)c1cnc(SC)nc1-2 | Kinesin-like protein KIF15 (Homo sapiens, UniProt Q9NS87) | ATPase activity, inhibitor |  |  | 6.2 µM |
| O=C(O)c1ccc(Nc2c(-c3ccc(CON=Cc4ccc(-c5ccccn5)cc4)cc3)nc3cc(-c4ccccc4)ccn23)cc1 | TDP1 (Homo sapiens, UniProt Q9NUW8) | enzyme activity, inhibitor, HPLC |  |  | 73 µM |
| CNC(=O)C1CCN(c2cc(C)c(F)cc2NC(=O)c2ccc(-c3c(C)ccc4[nH]ncc34)c(C)c2)CC1 | EPHB2 (Homo sapiens, UniProt P29323) | target engagement in cells, BRET |  |  | 0.06 µM |
| CN(CCO)c1ccc(/C=C/C(=O)c2ccco2)cc1 | Seed linoleate 13S-lipoxygenase-1 | enzyme activity, inhibitor, absorbance |  |  | 59.4 µM |
| O=c1c(-c2cccnc2)c[nH]n1-c1cnccn1 | EGLN2 | enzyme activity, inhibitor, europium VBC binding |  | 10 µM FeSO4, 2 mM ascorbate, with: 20 µM 2-oxoglutarate | 0.93 µM |
| CC(C)C[C@@H](NC(=O)[C@@H](Cc1ccccc1)NC(=O)[C@H]1CCCN1C(=O)[C@@H](CCC(N)=O)NC(=O)[C@H](NC(=O)[C@H]1CCCN1C(=O)[C@@H](CCCNC(=N)N)NC(=O)[C@@H](CO)NC(=O)[C@@H](CCC(N)=O)NC(=O)[C@@H](CC(=O)O)NC(=O)[C@H](N)[C@H](C)O)C(C)C)C(=O)N[C@H](CC(N)=O)C(=O)N[C@H](CC(C)C)C(=O)N[C@@H](C(=O)N[C@@H](C(=O)N1CCC[C@@H]1C(=O)N[C@H](CCCNC(=N)N)C(=O)N[C@H](CCCCN)C(=O)N1CCC[C@@H]1C(=O)N[C@H](CCCNC(=N)N)C(N)=O)[C@H](C)O)[C@H](C)O | Mapk14 (Mus musculus, UniProt P47811) | enzyme activity, inhibitor, radiometric |  | pH 7.5 | 1400 µM |
| COc1cc(OC)c(C(=O)CCc2ccccc2)c(O)c1O | DPP4 (Sus scrofa, UniProt P22411) | enzyme activity, inhibitor, absorbance |  |  | > 165 µM |
| C=C(NC(=O)C(=C)NC(=O)c1csc(C2=NC3c4csc(n4)C4NC(=O)c5csc(n5)C(C(C)(O)C(C)O)NC(=O)C5CSC(=N5)C(=CC)NC(=O)C(C)NC(=O)c5csc(n5)C3(CC2)NC(=O)C(C)NC(=O)C(=C)NC(=O)C(C)NC(=O)C(C(C)CC)NC2C=Cc3c(C(C)O)cc(nc3C2O)C(=O)OC4C)n1)C(N)=O (centres unmarked) | PSMB7 in 20S proteasome | trypsin-like activity, inhibitor | purified 20S proteasome | 15 min preincubation, 37 °C, with: Boc-Leu-Arg-Arg-AMC substrate | 0.71 ± 0.07 µM |
| CC(=O)NCCN(CC(=O)NCCN(CC(=O)NCCN(CC(=O)NCCC(N)=O)C(=O)[C@@H](N)CCCNC(=N)N)C(=O)[C@@H](N)CCCCN)C(=O)[C@@H](N)Cc1ccccc1 | HIV-1 TAR RNA | Tat/TAR complex displacement, FRET |  | room temperature, with: 10 nM Tat/TAR complex | 12.1 ± 0.8 µM |
| CC(=O)N[C@H]1[C@@H](OC(=O)NCCCOCCOCCOCCCNC(=O)O[C@H]2O[C@H](CNC(=O)OCCOCCOCCOCCOCCOCCOCCOCCOCCOCCOCCOC(=O)NC[C@H]3O[C@H](OC(=O)NCCCOCCOCCOCCCNC(=O)O[C@H]4O[C@H](CO)[C@@H](O)[C@H](O)[C@H]4NC(C)=O)[C@H](NC(C)=O)[C@@H](O)[C@@H]3O)[C@@H](O)[C@H](O)[C@H]2NC(C)=O)O[C@H](CO)[C@@H](O)[C@@H]1O | wheat germ agglutinin (Triticum vulgaris) | binding to immobilised GlcNAc, inhibitor, enzyme-linked lectin |  | with: HRP-labelled WGA | 0.0066 µM |
